Measured values gathered from unrelated publications.
Compare with care: the assays were run in different laboratories. Values joined by “and” are separate records of one study, mostly repeats; a detail may differ. ± marks the error that the study gave.
UniProt P49761, sequence (whole entry, looked up): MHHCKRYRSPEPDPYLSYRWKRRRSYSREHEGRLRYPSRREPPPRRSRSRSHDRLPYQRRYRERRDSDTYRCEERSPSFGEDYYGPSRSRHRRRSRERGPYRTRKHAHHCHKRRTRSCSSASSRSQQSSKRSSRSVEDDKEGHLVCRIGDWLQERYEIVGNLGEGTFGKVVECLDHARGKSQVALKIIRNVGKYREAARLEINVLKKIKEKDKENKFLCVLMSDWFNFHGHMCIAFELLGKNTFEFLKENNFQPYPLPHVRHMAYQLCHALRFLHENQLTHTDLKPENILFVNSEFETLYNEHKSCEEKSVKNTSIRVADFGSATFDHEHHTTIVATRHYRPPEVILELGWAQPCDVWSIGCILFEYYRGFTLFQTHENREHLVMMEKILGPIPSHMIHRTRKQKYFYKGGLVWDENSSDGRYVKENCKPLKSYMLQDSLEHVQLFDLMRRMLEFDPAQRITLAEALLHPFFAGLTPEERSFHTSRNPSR
UniProt P30411, sequence (whole entry, looked up): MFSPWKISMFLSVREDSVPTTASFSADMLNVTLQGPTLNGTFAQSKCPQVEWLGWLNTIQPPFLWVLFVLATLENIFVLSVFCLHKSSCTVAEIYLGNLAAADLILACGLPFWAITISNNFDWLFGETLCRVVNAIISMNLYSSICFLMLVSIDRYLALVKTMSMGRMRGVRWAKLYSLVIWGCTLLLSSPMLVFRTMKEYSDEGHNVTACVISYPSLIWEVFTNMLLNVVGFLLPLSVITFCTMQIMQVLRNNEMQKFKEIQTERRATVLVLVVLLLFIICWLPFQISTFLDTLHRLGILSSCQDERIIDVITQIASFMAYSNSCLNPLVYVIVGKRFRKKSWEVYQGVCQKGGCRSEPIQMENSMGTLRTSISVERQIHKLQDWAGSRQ

SMILES	tested on	assay	test system	setting	how to read	quantity	value
CC(C)CC(O)(CC(C)C)c1cn(C(=O)N2CCCC2)nn1	mouse T-cells	SILAC proteomics, refers to: NIBAN	–	1 nM, 6 h, unit not given	relative to: DMSO	protein level	1.1
CC(C)C[C@H](NC(=O)[C@H](CC(=O)O)NC(=O)CNC(=O)[C@@H](N)CCCNC(=N)N)C(=O)N[C@@H](C)C(=O)N[C@H](C(=O)N[C@@H](CC(C)C)C(=O)N[C@@H](CCCNC(=N)N)C(=O)N[C@@H](CCC(N)=O)C(=O)N[C@@H](CC(C)C)C(=O)N[C@@H](C)C(=O)N[C@@H](CCC(N)=O)C(=O)N[C@@H](CCC(=O)O)C(=O)N[C@@H](CC(=O)O)C(=O)NCC(=O)N[C@H](C(=O)N[C@H](C(=O)NCC(=O)N[C@H](C(=O)N[C@@H](CCCNC(=N)N)C(=O)NCCOCCOCCOCCOCCOCCOCCOCCOCCOCCOCCOCCOCCC(=O)N[C@@H](CS)C(N)=O)C(C)C)C(C)C)C(C)C)[C@@H](C)O	H1264 lung adenocarcinoma	cell binding, phage binding, refers to: output/input phage	–	10 min, 37 °C	relative to: control phage	selectivity ratio	1.3 ± 0.8
O=C(O)c1ccc(-c2nc(-c3ccccc3Cl)c3sccn23)cc1	K562	megakaryocyte differentiation, flow cytometry	–	0.1 mM, 72 h	relative to: untreated	CD61 fluorescence intensity	1.03 fold change and 1.17 fold change
COc1ccccc1-c1ccncc1C(=O)Nc1nnc(OCc2ccc(Cl)cc2)s1	RPE-1 TP53-/- BRCA1-/-	–	–	2 µM	relative to: untreated	colony survival	36.2% and 45.9%
CC(C)[C@H](NC(=O)[C@H](CCCNC(=N)N)NC(=O)[C@@H]1CCCN1C(=O)[C@@H](NC(=O)[C@H](C)NC(=O)[C@H](Cc1ccc(O)cc1)NC(=O)[C@H](CCC(N)=O)NC(=O)[C@H](CCCCN)NC(=O)[C@H](CCCNC(=N)N)NC(=O)[C@@H]1CCCN1C(=O)[C@H](CCC(=O)O)NC(=O)[C@@H](NC(=O)[C@H](C)N)[C@@H](C)O)[C@@H](C)O)C(=O)N[C@@H](Cc1ccccc1)C(=O)N[C@@H](Cc1c[nH]c2ccccc12)C(=O)N[C@H](C(=O)N[C@@H](CC(=O)O)C(=O)N[C@@H](C)C(=O)N1CCC[C@H]1C(=O)NCC(=O)NCCOCCOCCOCCOCCOCCOCCOCCOCCOCCOCCOCCOCCC(=O)N[C@@H](CS)C(N)=O)[C@@H](C)O	T47D breast cancer	cell binding, phage binding, refers to: output/input phage	–	10 min, 37 °C	relative to: control phage	selectivity ratio	24 ± 6
COc1ccccc1-c1n[nH]c2nc(NC3CCN(C(=O)Cc4ccc(F)cc4F)CC3)ncc12	–	bead binding, competition bead pull-down, refers to: LINJ.19.1590	Leishmania donovani axenic amastigote extract	10 µM	relative to: vehicle	relative abundance	1.12
CC(=O)NCSC[C@H](NC(=O)[C@@H]1CCCN1C(=O)[C@H](C)NC(=O)[C@@H](NC(=O)CNC(=O)[C@@H](NC(=O)[C@H](Cc1c[nH]c2ccccc12)NC(=O)[C@H](C)NC(=O)CNC(=O)[C@H](CO)NC(=O)[C@H](C)NC(=O)[C@@H]1CCCN1C(=O)[C@H](Cc1c[nH]c2ccccc12)NC(=O)[C@H](C)NC(=O)[C@H](C)NC(=O)[C@@H](N)Cc1ccc(O)cc1)[C@@H](C)O)[C@@H](C)O)C(=O)N[C@@H](CO)C(=O)N[C@@H](C)C(=O)NCC(=O)N[C@H](C(=O)NCCOCCOCCOCCOCCOCCOCCOCCOCCOCCOCCOCCOCCC(=O)N[C@@H](CS)C(N)=O)[C@@H](C)O	H1648	phage binding	–	10 min, 37 °C	relative to: control phage	selectivity ratio	14 ± 2
O=C(C[Se]C(=O)c1cccs1)Nc1cccc(C(F)(F)F)c1	NCI60 NSCLC subpanel	NCI60 five-dose screen	–	–	–	CC50	5.93 µM
CC(C)(C)C(=O)OCOP(=O)(OCOC(=O)C(C)(C)C)C1CCCN(O)C1=O (stereo not shown)	SF-268	–	–	–	–	CC50	> 100 µM
O=C(C[Se]C(=O)c1ccccc1)Nc1cccc(C(F)(F)F)c1	NCI60 prostate subpanel (PC-3, DU-145)	cell growth, inhibitor	–	five-dose	–	GI50	2.34 µM
Cc1cc(Oc2nc(N3CC[C@@H](c4ccncc4)C3)ncc2F)[nH]n1	Ovarian cancer cell lines	cell proliferation	–	–	–	IC50	42.7 µM
CS(C)(=O)=Nc1ccc(-c2ccc(-c3nc4cc(O[C@@H]5CO[C@H]6[C@@H]5OC[C@H]6O)[nH]c4cc3F)cc2)cc1	BDKRB2 (Homo sapiens, UniProt P30411)	calcium signal, antagonist	–	10 µM	–	inhibition	49%
O=C1NC2(CC2)COc2ncc(F)cc2[C@H]2COCCN2c2ccn3ncc1c3n2	–	–	Sprague-Dawley rat, male, plasma	oral, 2.5 mg/kg/day, end of treatment, 4-week repeated-dose toxicity	–	prothrombin time	9 ± 0.4 s
Cc1cc(C(=O)Nc2nc3cccc(C)c3n2[C@H]2CCCCN(C(=O)/C=C/CN(C)C)C2)ccn1	Trypanosoma brucei	propidium iodide flow cytometry, refers to: Multi phase	bloodstream parental line	concentration not given	–	cell cycle distribution	18.6% and 18.7% and 20.9%
COc1ccccc1-c1n[nH]c2nc(N[C@H]3CC[C@H](NS(=O)(=O)CC(C)C)CC3)ncc12	–	bead binding, competition bead pull-down, refers to: LINJ.34.0710	Leishmania donovani extract	10 µM	relative to: vehicle	relative abundance	1.05
CC(=O)Oc1ccccc1C(=O)[Se]CC(=O)Nc1cccc(C(F)(F)F)c1	NCI60 NSCLC subpanel	NCI60 five-dose screen	–	–	–	CC50	16.8 µM
CSCC[C@H](NC(=O)[C@@H](NC(=O)[C@H](CCC(N)=O)NC(=O)[C@H](CO)NC(=O)[C@@H](N)C(C)C)[C@@H](C)O)C(=O)N[C@@H](CCCNC(=N)N)C(=O)N[C@@H](CCC(N)=O)C(=O)N[C@H](C(=O)N[C@@H](C)C(=O)N[C@H](C(=O)N1CCC[C@H]1C(=O)N[C@@H](CC(C)C)C(=O)N[C@@H](CC(C)C)C(=O)N[C@@H](Cc1c[nH]c2ccccc12)C(=O)N[C@@H](Cc1ccccc1)C(=O)N[C@@H](Cc1c[nH]c2ccccc12)C(=O)N[C@H](C(=O)NCC(=O)N[C@@H](CO)C(=O)N[C@@H](CC(C)C)C(=O)NCCOCCOCCOCCOCCOCCOCCOCCOCCOCCOCCOCCOCCC(=O)N[C@@H](CS)C(N)=O)[C@@H](C)O)C(C)C)[C@@H](C)O	HCC15	phage binding	–	–	relative to: targeting over control phage	selectivity ratio	16 ± 2.6
O=C(C[Se]C(=O)c1ccco1)Nc1cccc(C(F)(F)F)c1	NCI60 leukemia subpanel	cell growth	–	10 µM, 48 h, one-dose	–	mean growth percent	35.4%
CN(C)[C@H]1C[C@@]23CC[C@@]4(O2)C(=CC[C@]2(C)[C@@H](c5ccc6ccncc6c5)CC[C@H]24)C=C3[C@@H](O)[C@@H]1O	CLK3 (Homo sapiens, UniProt P49761)	ATP probe labelling, inhibitor, KiNativ profiling	–	0.1 µM	–	inhibition	-6.5%

A few entries again:
SMILES	tested on	assay	test system	setting	how to read	quantity	value
O=C(C[Se]C(=O)c1ccccc1)Nc1cccc(C(F)(F)F)c1	NCI60 prostate subpanel (PC-3, DU-145)	cell growth, inhibitor	–	five-dose	–	GI50	2.34 µM
